Assay results pooled from the literature.
Values joined by “and” are separate records of one study, mostly repeats; a detail may differ. Numbers after ± are the reported error. In brackets after ≈: the same amount, converted by molar mass.

Compound = CC[C@H](C)[C@H](NC(=O)[C@@H](NC(=O)[C@H](CCCCN)NC(=O)[C@@H](NC(=O)[C@@H]1CCCN1[C@@H]1CN(C(=O)[C@@H](NC(=O)[C@@H](NC(=O)[C@@H](NC(=O)[C@@H](NC(=O)[C@@H](NC(=O)[C@@H](N)CCCCN)C(C)C)C(C)C)C(C)C)[C@@H](C)CC)[C@@H](C)O)CC[C@H]1NS(=O)(=O)c1ccc(C)cc1)[C@@H](C)O)C(C)C)C(=O)N[C@@H](CC(C)C)C(=O)N[C@@H](Cc1c[nH]cn1)C(N)=O; assay = CD spectroscopy; test system = 20 mM phosphate buffer; setting = 125 µM, 37 °C; measurement = beta-sheet content; result = 32.3%
Compound = [2H]C([2H])([18F])Oc1cc(C(=O)OCC2CCN(CCCC)CC2)ccc1N; assay = PET; test system = rhesus monkey, striatum; measurement = peak uptake; result = 4 to 7 SUV
Compound = C=CC(=O)Nc1cc(Nc2nccc(-c3cn(C)c4ccccc34)n2)c(OC)cc1N(C)CCNC; test system = human, dried blood spots; setting = 10 d, on ice, high QC level; measurement = remaining compound; result = 69.6%
Compound = CCCC[C@H]1C(=O)N(C)[C@@H](CCCC)C(=O)N[C@@H](CCCCNC(=S)Nc2ccc(CN3CCN(CC(=O)O)CCN(CC(=O)O)CC3)cc2)C(=O)N[C@H](C(=O)NCC(N)=O)CSCC(=O)N[C@@H](Cc2ccc(O)cc2)C(=O)N(C)[C@@H](C)C(=O)N[C@@H](CC(N)=O)C(=O)N2CCC[C@H]2C(=O)N[C@@H](Cc2cnc[nH]2)C(=O)N[C@@H](CCC(=O)O)C(=O)N2C[C@H](O)C[C@H]2C(=O)N[C@@H](Cc2c[nH]c3ccccc23)C(=O)N[C@@H](CO)C(=O)N[C@@H](Cc2cn(CC(=O)O)c3ccccc23)C(=O)N1C [fluorine-18 labelled]; assay = PET, refers to: PD-L1; test system = huCD34 mouse A-375 xenograft, tumour core within 3 mm; setting = combination therapy; measurement = SUV; result = 4.34 ± 0.65 SUV
Compound = CC(C)(C)NCC(SS(=O)(=O)O)c1ccccc1 (centres unmarked); test system = Schistosoma mansoni-infected Swiss Webster mice; setting = oral, daily x4, 100 mg/kg, from day 21, perfusion day 36; measurement = body weight; result = 29.9 g and 28.9 g and 27.4 g
Compound = C/C(N)=N/C(=N\S(=O)(=O)c1ccc(C(F)(F)F)cc1)N1C[C@H](c2ccccc2)C(c2ccc(Cl)cc2)=N1; test system = female cynomolgus monkey, plasma; setting = oral, 6 mg/kg; measurement = half-life; result = 11.4 h
Compound = Cc1nc(N)nc2c1C(=O)N[C@@H](c1ccc(F)cc1-c1cccc(O[11CH3])n1)C2; assay = radioligand, ex vivo biodistribution; test system = mouse, MDA-MB-231 xenograft, white blood cells; setting = 60 min p.i.; measurement = SUV; result = 3.3 ± 0.6
Compound = C=CC(=O)Oc1ccc(OC)c(-c2c[nH]c3ncc(-c4cncc(C(=O)N(C)C)c4)cc23)c1; assay = HPLC; setting = 50 µM, 37 °C, no lysine, followed to 24 h; measurement = hydrolytic half-life; result = > 24 h
Compound = CN(C)C(=O)c1cccc(N2Cc3cn(Cc4cccc(F)c4)nc3C2)c1; assay = metabolic stability; test system = human, liver microsomes; measurement = half-life; result = 1.67 h
Compound = COc1ccc2c(c1)CCn1c[n+]3c(c1-2)-c1ccc(OC)cc1CC3; test system = female NSG mice, blood; setting = 6 mg/kg, day 7, 5 days per week; measurement = mean platelet volume; result = 5.37 ± 0.12 fL
Compound = CCCCN1C(=O)c2cccc3c(NCCCCCCCCN4CCOCC4)ccc(c23)C1=O; test system = methanol; measurement = fluorescence quantum yield; result = 0.75
Compound = CN1CCC[C@]1(C)/C=C/S(=O)(=O)NC(=O)Nc1c2c(cc3c1C(O)CC3)CCC2 (some centres unmarked); test system = human, plasma; setting = oral, 100 mg twice daily of parent drug, metabolite of dosed drug; scale = reference: day 14 over day 1; measurement = AUC(0-24) accumulation ratio; result = 1.3
Compound = O=C([O-])CN1CCN(CC(=O)[O-])CCN(C(CO)C(O)CO)CCN(CC(=O)[O-])CC1.[Dy+3] (centres unmarked); test system = cynomolgus monkey, kidney medulla; setting = dose not given, day 58; measurement = lanthanide concentration; result = 2.1 ± 0.61 nmol/g
Compound = O=C(NS(=O)(=O)c1cccs1)c1cc2ccccc2n1Cc1ccc(Br)c2ccccc12; test system = Sprague-Dawley rat, male; setting = intravenous, dose not given, 1 h; measurement = plasma concentration; result = 184 ng/mL
Compound = N#Cc1ccnc(N2C(=O)CC[C@H]2C(=O)N(c2cncc(F)c2)[C@H](C(=O)NC2CC(F)(F)C2)c2ccccc2Cl)c1; test system = rat, brain; setting = oral, 50 mg/kg, single dose; measurement = tissue/plasma ratio; result = 0.041
Compound = COC1CN([C@H]2CC[C@H]([C@@]3(C)Oc4c(Cl)cc(C(=O)NCc5c(SC)cc(C)[nH]c5=O)c(C)c4O3)CC2)C1; test system = female CB17 SCID mice, KARPAS-422 xenograft, plasma; setting = 25 mg/kg, day 1; measurement = Tmax; result = 1 h
Compound = C=C(NC(=O)c1csc(-c2nc3c(cc2O)-c2nc(cs2)C(=O)NC(C(C)O)C(=O)NC(=C(C)OC)c2nc(cs2)C(=O)NC2c4nc(cs4)C(=O)NC(COC(=O)c4c5c6c(cccc6n4O)COC(=O)C(OC4CC(C)(O)C(N(C)C)C(C)O4)C2OC5)c2nc-3cs2)n1)C(N)=O (centres unmarked); test system = male cynomolgus monkey, plasma; setting = intravenous, 1 mg/kg, single dose, infusion; measurement = Cmax; result = 15600 ng/mL
Compound = CN1CCC[C@]1(C)/C=C/S(=O)(=O)NC(=O)Nc1c2c(cc3c1CCC3O)CCC2 (some centres unmarked); test system = human, plasma; setting = oral, 12.5 mg twice daily of parent drug, metabolite of dosed drug; scale = reference: day 14 over day 1; measurement = AUC(0-24) accumulation ratio; result = 1.5
Compound = CC(=O)N[C@H](CC(=O)O)C(=O)N[C@H](Cc1c[nH]c2ccccc12)C(=O)N[C@H](Cc1ccccc1)C(=O)N[C@H](CCCCN)C(=O)N[C@H](C)C(=O)N[C@H](Cc1ccccc1)C(=O)N[C@H](Cc1ccc(O)cc1)C(=O)N[C@H](CC(=O)O)C(=O)N[C@H](CCCCN)C(=O)N[C@@H](C(=O)N[C@H](C)C(=O)N[C@H](CCC(=O)O)C(=O)N[C@H](CCCCN)C(=O)N[C@H](Cc1ccccc1)C(=O)N[C@H](CCCCN)C(=O)N[C@H](CCC(=O)O)C(=O)N[C@H](C)C(=O)N[C@H](Cc1ccccc1)C(N)=O)C(C)C; test system = human, plasma; setting = concentration not given; measurement = time to return to baseline; result = ≥ 8 h
Compound = CN1CCC[C@]1(C)/C=C/S(=O)(=O)NC(=O)Nc1c2c(cc3c1CC(O)C3)CCC2 (some centres unmarked); test system = human, plasma; setting = oral, 100 mg twice daily of parent drug, day 14, metabolite of dosed drug; measurement = AUC(0-24); result = 211 µg·h/mL
Compound = C=Cc1ccccc1[B-]12OC(=O)C(c3ccccc3)=N[N+]1=Cc1ccc(N(CC)CC)cc1O2 (centres unmarked); assay = UV/vis decay; test system = aqueous buffer; measurement = hydrolysis activation energy; result = 23.3 kcal/mol
Compound = CC(=O)N([O-])CCCCCNC(=O)CCC(=O)N([O-])CCCCCNC(=O)CCC(=O)N([O-])CCCCCN.[89Zr+4]; test system = PBS; setting = 1 days, pH 7, 37 °C; measurement = intact compound; result = 98 ± 0.6%
Compound = O=S1(=O)CC2CCCCC2CS1 (centres unmarked); assay = phase solubility, NMR; test system = water; setting = 25 °C, with: hydroxypropyl-β-cyclodextrin 311 mM; measurement = solubility; result = 35.1 mM (≈ 7240 µg/mL)
Compound = Cc1cc(-c2ccc(C(=O)[C@@H]3CCCC[C@H]3C(=O)Nc3cnn4c3C(=O)NCC4)cc2)[nH]n1; test system = human, urine; setting = oral, 200 mg, 0-120 h; scale = reference: dose; measurement = cumulative radioactivity recovery; result = 6.62% and 4.97% and 4.93% and 6.31% and 5.61% and 6.78%
Compound = O=C(NCC1OC2CCC=CCCC2O1)c1ccc([18F])nc1 (centres unmarked); test system = healthy female BALB/c nude mice, spleen; setting = intravenous, 7.4 MBq per mouse, 2 min; measurement = tissue uptake; result = 4.2 ± 0.4 %ID/g
Compound = Cc1nn(-c2nc3c(F)cc(F)cc3s2)c(O)c1C(c1ccc(C(F)(F)F)cc1)c1c(C)nn(-c2nc3c(F)cc(F)cc3s2)c1O; test system = ICR mouse, plasma; setting = oral, 50 mg/kg; measurement = terminal half-life; result = 5.96 h and 3.46 h and 2.79 h
Compound = O=C(Nc1cnccc1-c1ccc([18F])nc1)c1ccnc(NC(=O)C2CC2)c1; test system = mice, transgenic, GSK-3β, early-stage, stomach; setting = intravenous, dose not given, 120 min; measurement = SUV; result = 0.362
Compound = [123I]c1ccc2nc(-c3ccc(-n4ccnn4)nc3)cn2c1; test system = male Wistar rat, bone; setting = intravenous, 4 MBq, 5 min; measurement = tracer uptake; result = 0.503 %ID/g
Compound = Cc1noc(C)c1Cn1cc(N2C(=O)CN(Cc3cccc(O[C@@H]4O[C@H](C(=O)O)[C@@H](O)[C@H](O)[C@H]4O)c3)C2=O)cn1; test system = rat Sprague-Dawley male, plasma; setting = oral, 100 mg/kg of parent drug, 0.5 h; measurement = plasma concentration; result = 166 ± 46.9 ng/mL
Compound = CN(CCNCc1ccncc1O)CCNCc1ccncc1O; assay = potentiometric titration; test system = aqueous KCl solution; setting = 1 mM, 25 °C, 0.1 M KCl; measurement = protonation constant logK3H; result = 6.8
Compound = CC(C)(O)c1ncc([S@](N)(=O)=NC(=O)Nc2c3c(cc4c2CCC4)CCC3)s1; test system = healthy human; setting = oral, 3 mg single dose, capsule formulation; measurement = gastrointestinal adverse events; result = 17%
Compound = O=C(Nc1cnccc1-c1ccc([18F])cc1)c1ccnc(NC(=O)C2CC2)c1; test system = FVB/NJ mice (both sexes), pancreas; setting = intravenous, dose not given, 120 min, with: tariquidar 15 mg/kg i.v. pre-dose; measurement = SUV; result = 0.49
Compound = CN1CCC[C@]1(C)/C=C/S(=O)(=O)NC(=O)Nc1c2c(cc3c1CCC3)CC=C2; test system = human, plasma; setting = oral, 12.5 mg twice daily of parent drug, day 14, metabolite of dosed drug; measurement = AUC(0-24); result = 137 µg·h/mL
Compound = CCCCN1C(=O)c2cccc3c(NCCCCCN4CCOCC4)ccc(c23)C1=O; test system = ethylene glycol; measurement = fluorescence lifetime; result = 8.1 ns
Compound = CC(C)c1cnc(-c2cc(Cl)ccc2F)cc1Nc1ccncc1C(=O)NC(CO)CO; test system = female C57BL/6 mice, plasma; setting = oral, 10 mg/kg twice daily, day 1, MC-38 tumour-bearing; measurement = Tmax; result = 12 h
Compound = C=Cc1ccccc1[B-]12OC(=O)C(c3ccccc3)=N[N+]1=C(C)c1ccc(N(CC)CC)cc1O2 (centres unmarked); assay = UV/vis decay; test system = aqueous buffer; measurement = hydrolysis activation energy; result = 23.5 kcal/mol
Compound = CC(C)C[C@H](NC(=O)[C@@H](CCCCNC(=O)[C@@H](Cc1ccccc1)NC(=O)CCCCCCCNC(=O)CN1CCN(CC(=O)O)CCN(CC(=O)O)CCN(CC(=O)O)CC1)NC(=O)[C@H](Cc1ccc(O)cc1)NC(=O)[C@H](CO)NC(=O)[C@H](Cc1c[nH]c2ccccc12)NC(=O)[C@H](Cc1c[nH]cn1)NC(=O)[C@@H]1CCC(=O)N1)C(=O)N[C@@H](CCCNC(=N)N)C(=O)N1CCC[C@H]1C(=O)NCC(N)=O [indium-111 labelled]; assay = biodistribution; test system = male athymic nude mice, DU-145 prostate cancer xenograft, bone; setting = intravenous, 0.037 MBq, 4 h post-injection; measurement = tissue uptake; result = 0.09 ± 0.03 %ID/g
Compound = N#Cc1ccnc(N2Cc3cn(Cc4ccc(F)cc4)nc3C2)n1; assay = metabolic stability; test system = human, liver microsomes; measurement = half-life; result = 0.85 h

Repeated from above:
Compound = CN1CCC[C@]1(C)/C=C/S(=O)(=O)NC(=O)Nc1c2c(cc3c1C(O)CC3)CCC2 (some centres unmarked); test system = human, plasma; setting = oral, 100 mg twice daily of parent drug, metabolite of dosed drug; scale = reference: day 14 over day 1; measurement = AUC(0-24) accumulation ratio; result = 1.3
Compound = O=C([O-])CN1CCN(CC(=O)[O-])CCN(C(CO)C(O)CO)CCN(CC(=O)[O-])CC1.[Dy+3] (centres unmarked); test system = cynomolgus monkey, kidney medulla; setting = dose not given, day 58; measurement = lanthanide concentration; result = 2.1 ± 0.61 nmol/g
Compound = O=C(NS(=O)(=O)c1cccs1)c1cc2ccccc2n1Cc1ccc(Br)c2ccccc12; test system = Sprague-Dawley rat, male; setting = intravenous, dose not given, 1 h; measurement = plasma concentration; result = 184 ng/mL
Compound = N#Cc1ccnc(N2C(=O)CC[C@H]2C(=O)N(c2cncc(F)c2)[C@H](C(=O)NC2CC(F)(F)C2)c2ccccc2Cl)c1; test system = rat, brain; setting = oral, 50 mg/kg, single dose; measurement = tissue/plasma ratio; result = 0.041
Compound = COC1CN([C@H]2CC[C@H]([C@@]3(C)Oc4c(Cl)cc(C(=O)NCc5c(SC)cc(C)[nH]c5=O)c(C)c4O3)CC2)C1; test system = female CB17 SCID mice, KARPAS-422 xenograft, plasma; setting = 25 mg/kg, day 1; measurement = Tmax; result = 1 h
Compound = C=C(NC(=O)c1csc(-c2nc3c(cc2O)-c2nc(cs2)C(=O)NC(C(C)O)C(=O)NC(=C(C)OC)c2nc(cs2)C(=O)NC2c4nc(cs4)C(=O)NC(COC(=O)c4c5c6c(cccc6n4O)COC(=O)C(OC4CC(C)(O)C(N(C)C)C(C)O4)C2OC5)c2nc-3cs2)n1)C(N)=O (centres unmarked); test system = male cynomolgus monkey, plasma; setting = intravenous, 1 mg/kg, single dose, infusion; measurement = Cmax; result = 15600 ng/mL
